# Experimental data gathered from unrelated publications.
# Every numbered part comes from another study and shows a few of its results, in no order. Positions count from the first letter of the parent shown.

# Set 1
# Target: Interferon regulatory factor 5, full length, phosphomimetic (IRF5, Homo sapiens, UniProt Q13568-2, residues 1-514, S451D/S453D/S456D/S462D)
# Technique: protein-binding microarray
# Molecule type: double-stranded DNA, one strand shown
# Matrix: in vitro
# Concentration: 940 nM top
# Setting: 60-bp whole probe
# With: salmon DNA 0.4 mg/ml
# Relative to: random background probes
# Direction: higher = stronger binding
# Constant ends, left off below: GCCTAGCAC … GTCTTGATTCGCTTGACGCTGCTG
Strand,fitted relative affinity
TTAGGTTTTCTTATCCTTTAGTGCTAG,1.06 z-score
GACGGTAGCGGGTATCGGGACGTGCTA,1 z-score
GACGATTTCAGTTTCGAGCCGTGCTAG,3.84 z-score
TTAGGACTGGGAATGGGTTAGTGCTAG,-0.0416 z-score
TTAGGTATCCTTTTCTTTTAGTGCTAG,1.02 z-score
TTGTGTTTTCATTTTATGACGTGCTAG,1.02 z-score
TTAGGTATCGATATCGGTTAGTGCTAG,9.77 z-score
GACGAACTGACTCTCGAGACGTGCTAG,0.833 z-score
GACGGAATCGGACTGGGGACGTGCTAG,-0.386 z-score
AACACAAACCCGCTGGAGTTGTGCTAG,-0.481 z-score
TCAGGTTTCCTTTCCCTTTAGTGCTAG,1.92 z-score
GACGGTTCCGGTTTCGGGGCGTGCTAG,5.24 z-score
TCAGCTCTCCGGGGTCTGACTGTGCTA,-0.096 z-score
GACGGACAGGACACTGGGGACGTGCTA,-0.406 z-score
GACGAATTCGGGTATCGAGACGTGCTA,1.06 z-score
TCAGGCTTAGTTTGTCAAACTGTGCTA,-0.54 z-score
TTCTTTTCCATTTTGTGTTTGTGCTAG,2 z-score
GACGGTATCCTTACCCTGACGTGCTAG,-0.0398 z-score
TTAGGTCTCGACTTTCGGTTAGTGCTA,4.08 z-score

# Set 2
# Target: Sal-like protein 4, full length isoform A (SALL4, Homo sapiens, UniProt Q9UJQ4, residues 1-1053)
# Sequence of UniProt Q9UJQ4 (whole entry, looked up): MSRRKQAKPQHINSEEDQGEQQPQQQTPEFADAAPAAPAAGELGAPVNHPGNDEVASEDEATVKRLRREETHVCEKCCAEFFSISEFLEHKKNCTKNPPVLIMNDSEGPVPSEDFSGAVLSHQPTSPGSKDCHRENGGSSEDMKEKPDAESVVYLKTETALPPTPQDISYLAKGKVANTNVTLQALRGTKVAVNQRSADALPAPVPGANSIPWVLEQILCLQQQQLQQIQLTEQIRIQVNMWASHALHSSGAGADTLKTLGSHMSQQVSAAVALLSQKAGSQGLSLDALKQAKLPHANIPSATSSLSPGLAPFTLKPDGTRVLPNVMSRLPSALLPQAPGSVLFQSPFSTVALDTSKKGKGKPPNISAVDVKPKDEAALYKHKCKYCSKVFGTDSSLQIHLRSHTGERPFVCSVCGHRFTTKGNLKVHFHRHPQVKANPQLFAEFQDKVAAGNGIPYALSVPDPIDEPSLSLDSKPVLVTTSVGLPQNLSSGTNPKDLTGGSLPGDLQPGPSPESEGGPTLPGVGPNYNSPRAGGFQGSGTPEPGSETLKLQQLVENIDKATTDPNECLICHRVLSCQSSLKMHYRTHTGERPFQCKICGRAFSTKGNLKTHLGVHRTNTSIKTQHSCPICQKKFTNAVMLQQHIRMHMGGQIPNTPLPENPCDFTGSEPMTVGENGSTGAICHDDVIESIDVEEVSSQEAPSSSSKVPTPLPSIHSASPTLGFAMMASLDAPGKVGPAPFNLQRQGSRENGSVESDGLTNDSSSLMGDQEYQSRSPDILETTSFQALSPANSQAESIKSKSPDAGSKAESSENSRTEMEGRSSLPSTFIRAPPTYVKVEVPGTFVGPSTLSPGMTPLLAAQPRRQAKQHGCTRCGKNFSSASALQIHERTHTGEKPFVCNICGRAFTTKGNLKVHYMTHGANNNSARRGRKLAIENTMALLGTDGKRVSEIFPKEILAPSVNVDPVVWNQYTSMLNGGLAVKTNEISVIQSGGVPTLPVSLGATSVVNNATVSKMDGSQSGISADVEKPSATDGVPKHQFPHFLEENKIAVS
# Technique: universal PBM
# Molecule type: double-stranded DNA, one strand shown
# Matrix: in vitro
# Concentration: 600 nM
# Setting: 8-mer, flanks averaged, mean of replicates
# Direction: higher = stronger binding
Strand,E-score
ATGTTTAG,0.206
CTAGACGC,-0.0846
ACTCATTC,0.15
CGTTCCTC,-0.151
GAGGGTAC,-0.258
CAATCGAG,-0.246
AAGTTAAT,0.287
CACTTCTG,-0.15
AAGGAGCT,0.0322
CCCCCAGG,-0.302
GGATACAC,-0.119
CTTCAATA,0.357
AATGTTGA,0.217
CGTGATAC,0.0688
CATGAGAG,-0.111
CGCACTAC,-0.178
CCTCTTAC,-0.154
ATGCCTCC,-0.12
AAGATTAA,0.319
CGCGCTCA,-0.177
ACTTCCTC,-0.12
GACAAATA,0.271
ACCTGGAA,0.118

# Set 3
# Target: CCNA2, cyclin fold, Cln2 fusion (human)
# Technique: yeast growth competition, sequencing
# Matrix: yeast
# Setting: strong parent motif
# Relative to: not given
# Direction: higher = stronger binding
# Starting sequence: E2F1 docking peptide (human); PPVKRRLDLETDH
Substitution,normalised enrichment score
D8C,4.43
D8P,2.06
E10W,5.15
V3W,1.39
T11G,4.44
E10M,3.62
K4D,0.4
T11V,4.53
L7F,-0.341
L7K,0.0688
H13I,4.83
H13K,5.06
L7E,-0.295
H13P,5.16
R5P,-1.8
L7N,0.448
R5G,0.522
R6I,0.619
R5M,0.426
D12F,5.15
L7Q,-0.116
P1Q,4.61
P2D,2.86
R6S,1.44
P1F,4.75

# Set 4
# Target: Ras GTPase-activating protein-binding protein 1, full length (G3BP1, Homo sapiens, UniProt Q13283)
# Sequence of UniProt Q13283 (whole entry, looked up): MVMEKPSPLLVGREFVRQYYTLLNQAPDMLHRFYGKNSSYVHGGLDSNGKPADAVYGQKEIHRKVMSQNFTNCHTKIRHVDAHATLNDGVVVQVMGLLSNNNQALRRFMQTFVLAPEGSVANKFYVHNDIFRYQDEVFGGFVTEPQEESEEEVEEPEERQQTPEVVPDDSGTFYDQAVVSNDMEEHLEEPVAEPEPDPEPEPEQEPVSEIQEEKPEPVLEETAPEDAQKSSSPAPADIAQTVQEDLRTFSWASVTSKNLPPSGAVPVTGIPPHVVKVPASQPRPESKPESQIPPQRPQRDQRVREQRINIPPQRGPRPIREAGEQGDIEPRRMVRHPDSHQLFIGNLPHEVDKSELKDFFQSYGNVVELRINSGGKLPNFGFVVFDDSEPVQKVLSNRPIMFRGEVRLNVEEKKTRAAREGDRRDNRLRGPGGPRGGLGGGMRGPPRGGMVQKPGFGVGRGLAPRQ
# Technique: RNA Bind-n-Seq
# Molecule type: RNA
# Matrix: in vitro
# Concentration: 200 nM
# Setting: whole 134-nt RNA, ends assumed
# With: 150 mM LiCl
# Relative to: input library
# Direction: higher = stronger binding
# Library: 7-deaza-guanosine replaces G
# Constant ends, left off below: GGGAGUUCUACAGUCCGACGAUC … UGGAAUUCUCGGGUGUCAAGG
Strand,log2 enrichment
AAGUCCUGUGCUACACAUCGUAUGUACCGAAUCAAAUUUUUAAAUUUAAAUUUAAAAAAGUAUUAUGUUACGCCGUUCGGAUCUGCACUU,-2.74
UAACUUUAGAGGAGGAUCUGAUGGAUAUGGCAGUGGACGUGGAUUUGGGGAUGGCUAUAAUGGGAAUGGAGGAGGACCUGGAGGUGGCAA,0.132
CUUAUGCCUUCCCCACUGGUAUUGAGGGUUUUGAUAAUAAAUUGGUAGGAAAAAAAAGUACCUCCUAGAAGGAAGCCUUCCCCACCAUUU,0.711
CUGUGCUACACAUCGUAUGUACCGAAUCGGGGUUUUUUUGGGGAAAGGGGAAAAAAAGGGGAAAGUAUUAUGUUACGCCGUUCGGAUCUG,-0.128
CACAGACAACACGCACCCACACAGACACAGAGGGAAGGCGUUGGGAUGGGGACAGGGUGCACAGCAGGGCGGGGUAGGACCCCAGCCCCU,-1.66
CCUGUGCUACACAUCGUAUGUACCGAAUCGGGAAAAAAAGGGAAAAAAAGGGAAAAAAAGGAAAGUAUUAUGUUACGCCGUUCGGAUCUG,0.0479
CACAGACAACACGCACCCACACAGACACAGAGGGAAGGGGUUGGGAUGGGGACAGGGUGCACAGCAGGGCGGGGUAGGACCCCAGCACCU,-1.49
CACAGACAACACGCACCCACACAGACACAGAGGGAAGGGGUUGGGAUGGGGACAGGGUGCACAGCAGGGCGGGGUCGGACCCCAGCCCCU,1.06

# Repeated from above (set 1):
Strand,fitted relative affinity
GACGGTTCCGGTTTCGGGGCGTGCTAG,5.24 z-score
TCAGCTCTCCGGGGTCTGACTGTGCTA,-0.096 z-score
GACGGACAGGACACTGGGGACGTGCTA,-0.406 z-score
GACGAATTCGGGTATCGAGACGTGCTA,1.06 z-score
TCAGGCTTAGTTTGTCAAACTGTGCTA,-0.54 z-score
TTCTTTTCCATTTTGTGTTTGTGCTAG,2 z-score
GACGGTATCCTTACCCTGACGTGCTAG,-0.0398 z-score
